Published values gathered from unrelated publications.
Protocols differ between the studies behind these lines. Numbers after ± are the reported error.

SMILES | target or system | test | test system | setting | how to read | measurement | result
N=C(N)NCCC[C@@H](NC(=O)[C@@H](N)Cc1ccccc1)C(=O)N[C@@H](Cc1ccccc1)C(=O)N[C@@H](CCCCN)C(N)=O |  | LC-MS | human | 15 mg, 23.83 h |  | median amount excreted in urine | 353000 ng
CC(C)C(=O)OC[C@H]1O[C@@H](n2ccc(NO)nc2=O)[C@H](O)[C@@H]1O |  |  | rat fetus dialysate | 5 ng/mL, 6 h, room temperature, low concentration, added: NHC 25 ng/mL |  | bench-top stability | 97.2 ± 1.87%
COc1ncccc1-c1cnn2ccc(N3CCN(C(=O)OC(C)C)CC3)nc12 |  |  | mouse, spinal nerve ligation model, plasma | oral, 30 mg/kg, 30 min |  | free plasma concentration | 180 nM
CO[C@H]1C[C@@H]2CC[C@@H](C)[C@@](O)(O2)C(=O)C(=O)N2CCCC[C@H]2C(=O)O[C@H]([C@H](C)C[C@@H]2CC[C@@H](OC(=O)NCCOCCOCCOCCOCCOCCOCCOCCOCCC(=O)N3CCc4cc(Cn5nc(-c6ccc7oc(N)nc7c6)c6c(N)ncnc65)ccc4C3)[C@H](OC)C2)C[C@@H](O)[C@H](C)/C=C(\C)[C@@H](O)[C@@H](OC)C(=O)[C@H](C)C[C@H](C)/C=C/C=C/C=C/1C |  | phase 1 dose escalation, measured: pneumonia | advanced solid tumour patients | intravenous, 16 mg weekly, grade ≥3 |  | dose-reducing adverse events | 0%
C[C@H]1COCCN1c1nc(NCc2cccnc2C(F)(F)F)c2cccnc2n1 |  |  | conscious rat, plasma | intravenous, 10 mg/kg, 5 min |  | plasma concentration | 36000 ng/mL
C1=Cc2nc1cc1ccc([n-]1)c(-c1ccccc1)c1nc(cc3ccc([n-]3)c2-c2ccccc2)C=C1.CC(=O)[O-].[Mn+3] |  | LC-MS/MS | Sprague-Dawley rat, plasma | oral gavage, dose not given, 360 min, individual rat Rat2 |  | plasma concentration | 121 ng/mL
C=CCNc1c(O)cc2c(O)c1C[C@@H](C)C[C@H](OC)[C@H](O)[C@@H](C)/C=C(\C)[C@H](OC(N)=O)[C@@H](OC)/C=C\C=C(/C)C(=O)N2 |  |  | unresectable or metastatic STS, GIST, other | intravenous, 150 mg/m^2 |  | patients with vomiting TEAE | 0%
Cc1ccc(F)c2cc(C(=O)N[C@@H]3CCC[C@H](N4CC[C@H](N(C)S(C)(=O)=O)C4)C3)[nH]c12 |  |  | CD1 mouse | intravenous, 1 mg/kg |  | Vss | 8.15 L/kg
C[C@]1(CO)Cc2ncn(-c3ccc(C#N)c(Cl)c3)c2C(=O)O1 |  | investigator-assessed | human | 80 mg multiple doses, fasted |  | subjects with drug-related TEAEs | 22.2%
CC(=O)c1c(C)c2cnc(Nc3ccc(C4CCN(CCS(C)(=O)=O)CC4)cn3)nc2n(C2CCCC2)c1=O |  |  | human, plasma | oral, 100 mg twice daily, single dose, monotherapy |  | t1/2 | 5.67 h
c1ccc2c(c1)ccc1c3ccccc3ccc21 |  |  | pooled human liver microsomes | 0.25 µM, pH 7.4 |  | metabolism rate | 9.63 pmol/min/mg
COc1ccc2nc3cc(Cl)ccc3c(Nc3cc(CN4CCCC4)c(O)c(CN4CCCC4)c3)c2n1 |  |  | mouse, blood | intraperitoneal, 14 mg/kg |  | haemoglobin | 151 g/L
C=CC(=O)Nc1cc(Nc2ncc(C(=O)OC(C)C)c(-c3cn(C)c4ccccc34)n2)c(OC)cc1N(C)CCN(C)C |  |  | NSCLC patients, primary efficacy population | 160 mg once daily, one event |  | fatal cardiac failure | 0.9%
COc1ccccc1-c1ccc(CN2CCC(NC(=O)Cc3ccc(F)cc3)C2)cc1 (stereo not drawn) | Vero-E6 | CellTiter-Glo ATP |  | concentration not given, 72 h, first round 5-point | baseline: DMSO 0%, hyamine -100%, more negative, more toxic | cytotoxicity efficacy | 0%
[O-][S+]1CCc2nc(N3CCC(c4ncc(Cl)cn4)CC3)nc(NC3(CO)CCC3)c21 (stereo not drawn) |  | phase I trial | healthy male volunteers, blood | oral, 48 mg single dose, after last treatment |  | creatine kinase | 229 U/L
COC[C@@H](CC(C)C)NC(=O)c1ccc(C)c(C)c1 |  | micronucleus test | Hsd:ICR (CD-1) mice female, bone marrow | oral, 624 mg/kg, 24 h |  | micronucleated PCE per 1000 PCE | 0.4
CN1CC[C@@H](c2c(O)cc(O)c3c(=O)cc(-c4ccc(C(F)(F)F)cc4Cl)oc23)[C@@H]1CO |  | measured: Hyperglycemia | relapsed AML | oral, 100 mg, grade 3-4, intermittent dosing |  | patients with adverse event | 0%
CCN1[C@@H](C(=O)NC23CCC(C(=O)O)(CC2)CC3)[C@H](c2cccc(Cl)c2F)[C@]2(C(=O)Nc3cc(Cl)ccc32)C12CCCCC2 |  |  | patients with advanced solid tumours | oral, dose not given, all doses |  | any-grade neutropenia incidence | 38.1%
Cn1ncc(-c2nc(N[C@H]3CC[C@H](N)CC3)ncc2Cl)c1CC1CC1 |  | phase I dose escalation | human patients | dose not given, grade 3 or higher TEAE |  | alanine aminotransferase increase incidence | 10%
O=C(Nc1ccccc1)C1CCN(C(=O)Oc2cccnc2)CC1 |  | Bond-Lader VAS | healthy women | oral, 60 mg | baseline: pre-dose baseline, direction not given | change in Happy-Sad score | -15

SMILES | target or system | test | test system | setting | how to read | measurement | result
Cc1cccc(-c2[nH]c(CNc3ccccc3F)nc2-c2ccc3ncnn3c2)n1 |  |  | human, relapsed/refractory multiple myeloma | oral, twice daily, added: pomalidomide 4 mg |  | MTD | 200 mg
O=S(=O)(Nc1ccccc1)c1ccc(NC(=S)Nc2ccccc2)cc1 |  |  | male mouse, blood | oral, 5 mg/kg daily, 14 days |  | chloride level | 106 mmol/L
CN1CCN(S(=O)(=O)c2cc([N+](=O)[O-])ccc2N(CCOS(C)(=O)=O)CCOS(C)(=O)=O)CC1 |  |  | NSG mice female, plasma | intraperitoneal, 25 mg/kg, 2 h |  | concentration | 100 nM
O=C(O)CNCP(=O)(O)O |  | ultrafiltration | cow milk whey | 2000 nM nominal in whole milk |  | final permeate concentration | 1930 nM
CCN(CC)CCCNC(=O)c1ccc(-c2nc(CN3CCc4ccccc43)c(C)o2)cc1 | Vero-E6 | CellTiter-Glo ATP |  | concentration not given, 72 h, retest 8-point duplicates | baseline: DMSO 0%, hyamine -100%, more negative, more toxic | cytotoxicity efficacy | 0%
COc1cc2c(Oc3ccc4[nH]c(C)cc4c3F)ccnc2cc1OCC1(N)CC1 |  |  | paediatric recurrent refractory sarcoma | concentration not given, whole group |  | grade 1 or 2 AST elevation | 26.5%
C[C@@H](NC(=O)N1C(=O)[C@H](Cc2ccnc(N)c2)[C@H]1C(=O)O)C1CCCCC1 |  |  | healthy adult Chinese volunteers | continuous intravenous infusion, 2.25 mg/kg/h, 5-day infusion, CTCAE 5.0 grading |  | incidence of albuminuria | 50%
CCc1ccc(CC/C=C/c2ccc3c(c2)C(=O)CC3)cc1 |  |  | Sprague-Dawley rat, female, serum | oral, 30 mg/kg/day, 14 days |  | sodium | 141 mM
CC(C)C[C@H](NC(=O)[C@H](CCCCN)NC(=O)OCC1c2ccccc2-c2ccccc21)C(=O)N[C@H](C(=O)N[C@@H](Cc1ccccc1)C(=O)N[C@@H](Cc1ccccc1)C(=O)N[C@@H](CCCCN)C(=O)NCC(=O)N[C@@H](Cc1ccccc1)C(=O)N[C@@H](C)C(=O)N[C@@H](Cc1c[nH]c2ccccc12)C(=O)N[C@@H](CC(N)=O)C(=O)N[C@H](C(=O)N[C@H]1CSSC[C@@H](C(=O)N[C@@H](Cc2c[nH]cn2)C(=O)N[C@@H](CCCNC(=N)N)C(=O)N[C@@H](CCCNC(=N)N)C(=O)N[C@@H](C)C(=O)N[C@@H](CC(N)=O)C(N)=O)NC(=O)[C@H](C(C)C)NC(=O)[C@H](CCCNC(=N)N)NC(=O)[C@H](C(C)C)NC(=O)CNC(=O)[C@H](CC(N)=O)NC(=O)[C@H](CCCNC(=N)N)NC(=O)[C@H](Cc2ccc(O)cc2)NC(=O)[C@H](C(C)C)NC1=O)C(C)C)C(C)C |  |  | ICR mice, serum | intraperitoneal, 5 mg/kg, day 5 |  | albumin | 33.1 ± 1.24 g/L
COc1cccc(N=Nc2ccc3[nH]cc(CCN(C)C)c3c2)c1 |  | light irradiation | solution | added: light 530 nm |  | trans isomer at photostationary state | 85%
NCCCC[C@@H]1NC(=O)[C@@H](Cc2c[nH]c3ccccc23)NC(=O)[C@H](c2ccccc2)NC(=O)[C@@H]2C[C@@H](OC(=O)NCCN)CN2C(=O)[C@H](Cc2ccccc2)NC(=O)[C@H](Cc2ccc(OCc3ccccc3)cc2)NC1=O |  |  | healthy volunteers, male | 1950 µg twice daily, 0.0 h, post hoc |  | placebo-corrected QTcF change | 6.7 ms
O=C(c1ccc(F)c(F)c1Nc1ccc(I)cc1F)N1CC(O)([C@@H]2CCCCN2)C1 |  |  | patients aged sample A to sample B years | oral, dose not given |  | related AE leading withdrawal | 29%
C=CC(=O)N1CC[C@H](n2nc(C#Cc3cc(OC)cc(OC)c3)c3c(N)ncnc32)C1 |  |  | patients with advanced solid tumours | oral, dose not given, Diarrhea, any grade, QD, added: lanthanum carbonate hydrate |  | adverse drug reaction incidence | 29.2%
O=C1Nc2cc3[nH]nc(-c4ccncc4)c3cc2CN1Cc1ccccc1 |  | CTCAE v4.03 | advanced solid tumour patients | intravenous, 4.8 mg/kg, schedules 1/2 |  | patients with blurred vision | 25%
Cc1c(COC(=O)[C@@H]2[C@H](/C=C(\Cl)C(F)(F)F)C2(C)C)cccc1-c1ccccc1 (racemic) |  | measured: CYP3A5 | human, age 6 months, recombinant human CYP3A5 | 0.1 µM |  | enzyme contribution to clearance | 2.36%
C/C(=N\C#N)N(C)Cc1ccc(Cl)nc1 |  |  | soil | 0 days, nominal 1.1 |  | recovery | 59%
CCN1CCN(Cc2ccc(Nc3ncc(F)c(-c4cc(F)c5nc6n(c5c4)[C@H](C)CCC6)n3)nc2)CC1 |  |  | advanced solid tumour patients | dose not given, Phase Ia monotherapy |  | Hypercalcemia incidence, any grade | 20.8%
Cn1cncc1-c1c(F)cncc1NC(=O)c1c(N)nn2cc(F)cnc12 |  |  | human patients | oral, 220 mg once daily |  | grade ≥3 hyponatraemia incidence | 0%
C=CC(=O)Nc1cc(Nc2nccc(Nc3cc(Cl)c(F)cc3C(C)(C)O)n2)c(OC)cc1N1CC[C@@H](N(C)C)C1 |  |  | human | oral, dose not given |  | weight decreased TEAE | 14.7%

Some of these lines once more:
SMILES | target or system | test | test system | setting | how to read | measurement | result
[O-][S+]1CCc2nc(N3CCC(c4ncc(Cl)cn4)CC3)nc(NC3(CO)CCC3)c21 (stereo not drawn) |  | phase I trial | healthy male volunteers, blood | oral, 48 mg single dose, after last treatment |  | creatine kinase | 229 U/L
COC[C@@H](CC(C)C)NC(=O)c1ccc(C)c(C)c1 |  | micronucleus test | Hsd:ICR (CD-1) mice female, bone marrow | oral, 624 mg/kg, 24 h |  | micronucleated PCE per 1000 PCE | 0.4
CN1CC[C@@H](c2c(O)cc(O)c3c(=O)cc(-c4ccc(C(F)(F)F)cc4Cl)oc23)[C@@H]1CO |  | measured: Hyperglycemia | relapsed AML | oral, 100 mg, grade 3-4, intermittent dosing |  | patients with adverse event | 0%
CCN1[C@@H](C(=O)NC23CCC(C(=O)O)(CC2)CC3)[C@H](c2cccc(Cl)c2F)[C@]2(C(=O)Nc3cc(Cl)ccc32)C12CCCCC2 |  |  | patients with advanced solid tumours | oral, dose not given, all doses |  | any-grade neutropenia incidence | 38.1%
Cn1ncc(-c2nc(N[C@H]3CC[C@H](N)CC3)ncc2Cl)c1CC1CC1 |  | phase I dose escalation | human patients | dose not given, grade 3 or higher TEAE |  | alanine aminotransferase increase incidence | 10%
O=C(Nc1ccccc1)C1CCN(C(=O)Oc2cccnc2)CC1 |  | Bond-Lader VAS | healthy women | oral, 60 mg | baseline: pre-dose baseline, direction not given | change in Happy-Sad score | -15
